Assay results gathered from unrelated publications.
Protocols differ between the studies behind these lines. Numbers after ± are the reported error. Where no end group is shown, it is not given here.

| Molecule | tested on | test | system | setting | how to read | quantity | result |
| --- | --- | --- | --- | --- | --- | --- | --- |
| Cn1c(-c2ccccc2)cc2ccccc21 | RAW264.7 | sulforhodamine B |  | 50 µM, 20 h | reference: vehicle | viability | 74.3 ± 6.2% |
| COc1cccc(/C=C/c2nc3ccc(N4CCCCC4)cc3c(=O)n2-c2cccc(C(C)(C)C)c2)n1 | Zika virus | viral replication, inhibitor | Vero | 10 µM |  | inhibition | ≥ 99.9% |
| Polymyxin B |  |  | human whole blood | 125 ng/mL, 4 h, 37 °C, with: E. coli LPS 0.5 ng/mL | reference: LPS without compound | IL-6 release | 22 ± 12% |
| NNC(=O)Cn1cc(COc2ccccc2-c2nc(-c3ccccc3)no2)nn1 | Caco-2 | qPCR, item: mTOR |  | IC50, 24 h | reference: untreated cancer cells | mRNA level | 0.32 ± 0.09 fold |
| c1ccc(Cn2c(-c3ccccc3)cc3ccccc32)cc1 | RAW264.7 | sulforhodamine B |  | 50 µM, 20 h | reference: vehicle | viability | 84.6 ± 2% |
| TDVDHVFLAF-NH2 (C-amide) | Drosophila melanogaster | heart rate | wandering third instar larval heart | 40 nL injected, 1 µM, 10 min | reference: DMS | inhibition | 55% |
| CO/N=C1\C[C@]2(C[C@@H]3C[C@@H](C/C=C(\C)C[C@@H](C)/C=C/C=C4\CO[C@@H]5[C@H](O)C(C)=C[C@@H](C(=O)O3)[C@]45O)O2)O[C@H](/C(C)=C/C(C)C)[C@H]1C | Haemonchus contortus |  | multidrug resistant, sheep | oral, 0.2 mg/kg, day 6 post-treatment, with: closantel 10 mg/kg |  | faecal egg count reduction | 91% |
| CC(C)=CCc1c(-c2ccccc2)n(CC=C(C)C)c2ccccc12 | RAW264.7 | sulforhodamine B |  | 50 µM, 20 h | reference: vehicle | viability | 89 ± 3.4% |
| CC(C)C[C@H](NC(=O)[C@H](CO)NC(=O)[C@H](CCCNC(=N)N)NC(=O)[C@H](CC(=O)O)NC(=O)[C@H](CCC(=O)O)NC(=O)[C@H](C)NC(=O)[C@@H]1CCCN1C(=O)[C@H](C)NC(=O)[C@H](CCC(=O)O)NC(=O)[C@@H]1CCCN1C(=O)[C@@H]1CCCN1)C(N)=O |  | HPLC-EC | F344 rat, normal, striatum | intranasal, 300 µg, 5 days/week for 3 weeks |  | DOPAC level | 2420 ± 259 ng/g |
| COc1ccc(-c2cc3ccccc3[nH]2)cc1 | RAW264.7 | sulforhodamine B |  | 50 µM, 20 h | reference: vehicle | viability | 59.8 ± 4% |
| TDVDAVFLRF-NH2 (C-amide) | Drosophila melanogaster | gut contraction | adult gut | 1 µM, within 10 min | reference: DMS effect | inhibition | 78% |
| Clc1ccc(-c2cc3ccccc3[nH]2)cc1Cl | RAW264.7 | NO release, inhibitor, Griess |  | 50 µM, 20 h, LPS-stimulated |  | inhibition | 55.8% |
| TDVAHVFLRF-NH2 (C-amide) | Drosophila melanogaster | heart rate | wandering third instar larval heart | 40 nL injected, 1 µM, 10 min | reference: DMS | inhibition | 27% |
| CON=Cc1c(-c2ccccc2)[nH]c2ccccc12 | RAW264.7 | NO release, inhibitor, Griess |  | 50 µM, 20 h, LPS-stimulated |  | inhibition | 97.2% |
| TDADHVFLRF-NH2 (C-amide) | Drosophila melanogaster | heart rate | wandering third instar larval heart | 40 nL injected, 1 µM, 10 min | reference: DMS | inhibition | 73% |
| N=C(N)NCCC[C@H](NC(=O)[C@@H]1CSSC[C@H](NC(=O)[C@H](Cc2ccc3ccccc3c2)NC(=O)[C@H](CCCNC(=N)N)NC(=O)[C@H](CCCNC(=N)N)NC(=O)CN2CCN(CC(=O)O)CCN(CC(=O)O)CC2)C(=O)N[C@@H](Cc2ccc(O)cc2)C(=O)N[C@@H](CCCNC(N)=O)C(=O)N[C@@H](CCCCN)C(=O)N[C@H](CCCCN)C(=O)N2CCC[C@H]2C(=O)N[C@@H](Cc2ccc(O)cc2)C(=O)N[C@@H](CCCNC(=N)N)C(=O)N[C@@H](CCCNC(N)=O)C(=O)N1)C(N)=O [fluorine-18 labelled] | CHO expressing CXCR4 |  |  | 15 min, 37 °C | reference: added activity | cell uptake | 26.4 ± 0.57% |
| O=C(Cn1cc(COc2ccccc2-c2nc(Cc3ccccc3)no2)nn1)NNC(=S)Nc1ccccc1 | A549 | qPCR, item: PI3K |  | IC50, 24 h | reference: untreated cancer cells | mRNA level | 0.36 ± 0.005 fold |
| TDVDHVFARF-NH2 (C-amide) | Drosophila melanogaster | heart rate | wandering third instar larval heart | 40 nL injected, 1 µM, 10 min | reference: DMS | inhibition | 55% |
| NC(=O)Cn1cc(COc2ccccc2-c2nc(Cc3ccccc3)no2)nn1 | A549 | qPCR, item: EGFR |  | IC50, 24 h | reference: untreated cancer cells | mRNA level | 0.23 ± 0.004 fold |
| O=C1c2c(O)cc(O)cc2O[C@H](c2cc(O)c(O)c(O)c2)[C@H]1O | GABAA receptor, rat | mIPSC enhancement, positive allosteric modulator, whole-cell patch clamp | hippocampal neurons, cultured | with: ethanol 60 mM for 30 min, recorded 24 h after exposure |  | EC50 | ~150 nM |
| CS(=O)(=O)c1ccc(-c2cnc(N)c(-c3ccc(C(F)(F)F)nc3)c2)cc1 | Plasmodium cynomolgi | schizont (large EEF) growth | primary rhesus hepatocytes | day 3, compound added at 72 h |  | IC50 | 310 nM |
| C#CCn1c(-c2ccccc2)cc2ccccc21 | RAW264.7 | sulforhodamine B |  | 50 µM, 20 h | reference: vehicle | viability | 35.8 ± 3.2% |
| NC(=O)Cn1cc(COc2ccccc2-c2nc(-c3ccccc3)no2)nn1 | A549 | qPCR, item: mTOR |  | IC50, 24 h | reference: untreated cancer cells | mRNA level | 0.27 ± 0.01 fold |
| Cc1ccc(NC(=O)c2ccc(CN3CCN(C)CC3)cc2)cc1Nc1nccc(-c2cncc(-c3oncc3C)c2)n1 |  |  | mild-to-moderate Parkinson's disease patients | oral, 50 mg once daily, day 7, practically defined OFF state | direction not given | MDS-UPDRS part II score | 8.7 ± 6.9 |
| TDVDHAFLRF-NH2 (C-amide) | Drosophila melanogaster | heart rate | wandering third instar larval heart | 40 nL injected, 1 µM, 10 min | reference: DMS | inhibition | 55% |
| COc1cccc2c1C(=O)c1c(O)c3c(c(O)c1C2=O)C[C@@](O)(C(=O)CO)C[C@@H]3O[C@H]1C[C@H](N)[C@H](O)[C@H](C)O1 | A549 | qPCR, item: TP53 |  | concentration not given, 24 h | reference: untreated | mRNA level | 8.3 ± 0.02 fold |
| Cc1cc(C(C#N)c2ccc(Cl)cc2)c(Cl)cc1NC(=O)c1cc(I)cc(I)c1O (stereo not shown) | Haemonchus contortus |  | multidrug-resistant | oral, 10 mg/kg, day 2 post-treatment, with: moxidectin 0.2 mg/kg |  | faecal egg count reduction | 88% |
| Cc1ccc2cc(-c3ccccc3)[nH]c2c1 | RAW264.7 | NO release, inhibitor, Griess |  | 50 µM, 20 h, LPS-stimulated |  | inhibition | 45.1% |

Excerpt of the above:
| Molecule | tested on | test | system | setting | how to read | quantity | result |
| --- | --- | --- | --- | --- | --- | --- | --- |
| Cn1c(-c2ccccc2)cc2ccccc21 | RAW264.7 | sulforhodamine B |  | 50 µM, 20 h | reference: vehicle | viability | 74.3 ± 6.2% |
| COc1cccc(/C=C/c2nc3ccc(N4CCCCC4)cc3c(=O)n2-c2cccc(C(C)(C)C)c2)n1 | Zika virus | viral replication, inhibitor | Vero | 10 µM |  | inhibition | ≥ 99.9% |
| Polymyxin B |  |  | human whole blood | 125 ng/mL, 4 h, 37 °C, with: E. coli LPS 0.5 ng/mL | reference: LPS without compound | IL-6 release | 22 ± 12% |
| NNC(=O)Cn1cc(COc2ccccc2-c2nc(-c3ccccc3)no2)nn1 | Caco-2 | qPCR, item: mTOR |  | IC50, 24 h | reference: untreated cancer cells | mRNA level | 0.32 ± 0.09 fold |
| c1ccc(Cn2c(-c3ccccc3)cc3ccccc32)cc1 | RAW264.7 | sulforhodamine B |  | 50 µM, 20 h | reference: vehicle | viability | 84.6 ± 2% |
